# Assay results collected from several papers.
# Numbered parts are unrelated; each lists some results of a single study. “And” joins repeats or separate records; there may be more than shown.
# UniProt Q08881, sequence (whole entry, looked up): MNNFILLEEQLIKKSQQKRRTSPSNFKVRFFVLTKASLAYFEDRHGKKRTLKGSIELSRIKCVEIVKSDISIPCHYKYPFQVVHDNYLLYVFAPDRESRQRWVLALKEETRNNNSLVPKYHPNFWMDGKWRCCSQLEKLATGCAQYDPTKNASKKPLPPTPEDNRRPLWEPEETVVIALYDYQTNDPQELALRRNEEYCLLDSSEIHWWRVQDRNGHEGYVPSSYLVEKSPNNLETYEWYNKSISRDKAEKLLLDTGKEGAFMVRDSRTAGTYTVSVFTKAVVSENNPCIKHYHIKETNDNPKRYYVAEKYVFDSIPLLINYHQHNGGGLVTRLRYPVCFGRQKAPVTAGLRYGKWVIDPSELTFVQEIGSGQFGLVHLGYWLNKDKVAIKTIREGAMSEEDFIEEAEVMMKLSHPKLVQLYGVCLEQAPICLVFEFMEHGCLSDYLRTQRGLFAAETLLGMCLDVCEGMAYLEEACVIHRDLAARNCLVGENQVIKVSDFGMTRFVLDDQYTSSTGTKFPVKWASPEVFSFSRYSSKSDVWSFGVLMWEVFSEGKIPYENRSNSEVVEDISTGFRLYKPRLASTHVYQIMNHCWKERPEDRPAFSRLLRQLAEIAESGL
# UniProt P08581, sequence (whole entry, looked up): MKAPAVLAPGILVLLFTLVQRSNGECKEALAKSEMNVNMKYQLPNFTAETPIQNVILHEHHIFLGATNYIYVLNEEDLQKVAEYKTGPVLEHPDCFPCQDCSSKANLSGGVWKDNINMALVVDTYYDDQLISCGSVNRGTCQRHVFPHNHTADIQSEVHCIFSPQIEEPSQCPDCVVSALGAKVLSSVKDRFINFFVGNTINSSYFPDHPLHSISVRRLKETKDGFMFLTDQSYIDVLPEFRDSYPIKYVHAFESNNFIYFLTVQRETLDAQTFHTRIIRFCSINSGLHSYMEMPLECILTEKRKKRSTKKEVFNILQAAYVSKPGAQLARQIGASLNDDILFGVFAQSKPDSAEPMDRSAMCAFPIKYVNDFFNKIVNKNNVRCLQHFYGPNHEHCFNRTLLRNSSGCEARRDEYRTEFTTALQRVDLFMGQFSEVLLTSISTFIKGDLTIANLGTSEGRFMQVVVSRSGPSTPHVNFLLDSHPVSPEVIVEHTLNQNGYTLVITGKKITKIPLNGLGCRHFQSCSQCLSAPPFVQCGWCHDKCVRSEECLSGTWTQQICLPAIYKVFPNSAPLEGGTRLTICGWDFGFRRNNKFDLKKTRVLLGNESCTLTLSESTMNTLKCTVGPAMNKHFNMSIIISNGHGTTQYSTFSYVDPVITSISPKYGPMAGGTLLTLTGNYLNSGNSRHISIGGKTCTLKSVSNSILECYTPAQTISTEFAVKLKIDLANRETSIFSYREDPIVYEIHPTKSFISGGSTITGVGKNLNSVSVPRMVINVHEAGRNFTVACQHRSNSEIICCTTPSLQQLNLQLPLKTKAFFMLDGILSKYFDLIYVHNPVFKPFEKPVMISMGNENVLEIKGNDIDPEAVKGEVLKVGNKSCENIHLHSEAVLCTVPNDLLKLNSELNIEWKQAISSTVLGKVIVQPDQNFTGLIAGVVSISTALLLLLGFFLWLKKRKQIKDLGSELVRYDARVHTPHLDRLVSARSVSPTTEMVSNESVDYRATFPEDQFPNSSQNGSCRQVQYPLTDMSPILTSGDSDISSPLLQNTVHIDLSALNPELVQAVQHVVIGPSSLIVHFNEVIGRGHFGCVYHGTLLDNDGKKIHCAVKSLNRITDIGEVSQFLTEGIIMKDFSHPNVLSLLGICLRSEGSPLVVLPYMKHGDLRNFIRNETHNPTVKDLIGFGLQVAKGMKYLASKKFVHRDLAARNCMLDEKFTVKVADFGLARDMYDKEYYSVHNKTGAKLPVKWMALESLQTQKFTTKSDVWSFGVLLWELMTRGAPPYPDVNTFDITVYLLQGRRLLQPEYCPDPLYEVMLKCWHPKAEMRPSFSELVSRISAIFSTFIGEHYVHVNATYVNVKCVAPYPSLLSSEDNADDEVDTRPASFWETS
# UniProt Q05397, sequence (whole entry, looked up): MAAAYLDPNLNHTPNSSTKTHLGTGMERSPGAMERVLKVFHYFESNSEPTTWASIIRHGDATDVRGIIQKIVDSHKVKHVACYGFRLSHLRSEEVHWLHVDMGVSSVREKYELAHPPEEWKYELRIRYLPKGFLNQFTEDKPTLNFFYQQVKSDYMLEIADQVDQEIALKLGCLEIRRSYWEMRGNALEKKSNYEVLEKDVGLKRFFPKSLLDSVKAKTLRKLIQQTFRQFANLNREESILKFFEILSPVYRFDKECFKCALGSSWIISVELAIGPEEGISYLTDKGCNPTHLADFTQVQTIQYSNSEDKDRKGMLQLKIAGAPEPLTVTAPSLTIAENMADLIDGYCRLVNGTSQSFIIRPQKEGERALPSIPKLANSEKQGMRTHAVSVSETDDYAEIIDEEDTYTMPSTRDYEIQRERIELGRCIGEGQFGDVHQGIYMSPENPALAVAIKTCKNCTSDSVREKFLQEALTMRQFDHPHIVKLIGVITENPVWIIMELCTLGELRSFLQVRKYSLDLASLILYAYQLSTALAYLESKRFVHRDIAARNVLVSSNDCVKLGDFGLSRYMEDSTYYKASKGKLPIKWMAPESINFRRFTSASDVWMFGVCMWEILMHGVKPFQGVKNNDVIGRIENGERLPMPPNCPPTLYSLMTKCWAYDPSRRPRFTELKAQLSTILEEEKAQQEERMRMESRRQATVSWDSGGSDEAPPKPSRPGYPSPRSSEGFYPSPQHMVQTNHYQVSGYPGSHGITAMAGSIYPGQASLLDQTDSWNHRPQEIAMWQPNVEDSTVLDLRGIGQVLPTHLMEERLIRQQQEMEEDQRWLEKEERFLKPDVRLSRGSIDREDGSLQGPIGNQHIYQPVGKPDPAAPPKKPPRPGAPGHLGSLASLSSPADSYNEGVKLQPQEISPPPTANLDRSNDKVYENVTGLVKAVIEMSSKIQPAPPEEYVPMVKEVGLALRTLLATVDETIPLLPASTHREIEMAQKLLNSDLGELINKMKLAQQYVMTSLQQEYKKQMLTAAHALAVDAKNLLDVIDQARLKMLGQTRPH
# UniProt Q8N4C8, sequence (whole entry, looked up): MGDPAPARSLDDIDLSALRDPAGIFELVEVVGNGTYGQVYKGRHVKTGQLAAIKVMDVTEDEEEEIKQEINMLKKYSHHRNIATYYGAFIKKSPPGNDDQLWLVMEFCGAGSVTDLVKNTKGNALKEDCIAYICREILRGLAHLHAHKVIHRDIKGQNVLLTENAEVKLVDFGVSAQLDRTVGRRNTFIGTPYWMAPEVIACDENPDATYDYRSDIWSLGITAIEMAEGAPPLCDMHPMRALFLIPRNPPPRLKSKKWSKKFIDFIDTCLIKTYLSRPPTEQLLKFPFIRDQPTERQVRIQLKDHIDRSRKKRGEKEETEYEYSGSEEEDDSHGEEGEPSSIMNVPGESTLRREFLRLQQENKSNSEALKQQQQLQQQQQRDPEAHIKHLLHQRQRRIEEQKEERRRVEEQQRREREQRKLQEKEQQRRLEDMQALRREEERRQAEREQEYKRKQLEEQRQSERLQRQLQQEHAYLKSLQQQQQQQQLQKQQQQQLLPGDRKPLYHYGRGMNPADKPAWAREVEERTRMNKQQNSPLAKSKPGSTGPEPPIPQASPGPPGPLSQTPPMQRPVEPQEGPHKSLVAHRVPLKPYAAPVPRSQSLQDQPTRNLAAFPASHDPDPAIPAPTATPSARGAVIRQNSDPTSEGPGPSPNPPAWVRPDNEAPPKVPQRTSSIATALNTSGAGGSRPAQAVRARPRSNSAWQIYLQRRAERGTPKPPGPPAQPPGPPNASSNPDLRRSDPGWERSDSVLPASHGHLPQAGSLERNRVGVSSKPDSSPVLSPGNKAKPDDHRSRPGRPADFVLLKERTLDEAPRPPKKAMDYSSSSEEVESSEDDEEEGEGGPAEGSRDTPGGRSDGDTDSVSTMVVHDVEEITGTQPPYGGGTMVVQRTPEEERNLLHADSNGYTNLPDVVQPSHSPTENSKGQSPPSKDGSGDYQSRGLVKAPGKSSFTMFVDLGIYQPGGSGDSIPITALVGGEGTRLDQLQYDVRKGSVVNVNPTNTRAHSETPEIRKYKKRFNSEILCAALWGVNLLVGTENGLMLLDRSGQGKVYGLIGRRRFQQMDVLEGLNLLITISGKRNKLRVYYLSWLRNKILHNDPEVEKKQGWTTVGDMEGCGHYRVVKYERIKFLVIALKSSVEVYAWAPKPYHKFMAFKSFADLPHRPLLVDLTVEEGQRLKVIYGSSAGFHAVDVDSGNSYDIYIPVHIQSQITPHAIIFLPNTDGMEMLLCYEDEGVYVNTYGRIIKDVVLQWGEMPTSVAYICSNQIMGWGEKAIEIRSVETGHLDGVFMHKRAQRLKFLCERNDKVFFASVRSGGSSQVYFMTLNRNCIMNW

# Series 1 — observed: enzyme activity; action: inhibitor; concentration: 0.5 µM; baseline: control
# Target: Calcium/calmodulin-dependent protein kinase kinase 2 (CAMKK2, Homo sapiens, UniProt Q96RR4)
# UniProt Q96RR4, sequence (whole entry, looked up): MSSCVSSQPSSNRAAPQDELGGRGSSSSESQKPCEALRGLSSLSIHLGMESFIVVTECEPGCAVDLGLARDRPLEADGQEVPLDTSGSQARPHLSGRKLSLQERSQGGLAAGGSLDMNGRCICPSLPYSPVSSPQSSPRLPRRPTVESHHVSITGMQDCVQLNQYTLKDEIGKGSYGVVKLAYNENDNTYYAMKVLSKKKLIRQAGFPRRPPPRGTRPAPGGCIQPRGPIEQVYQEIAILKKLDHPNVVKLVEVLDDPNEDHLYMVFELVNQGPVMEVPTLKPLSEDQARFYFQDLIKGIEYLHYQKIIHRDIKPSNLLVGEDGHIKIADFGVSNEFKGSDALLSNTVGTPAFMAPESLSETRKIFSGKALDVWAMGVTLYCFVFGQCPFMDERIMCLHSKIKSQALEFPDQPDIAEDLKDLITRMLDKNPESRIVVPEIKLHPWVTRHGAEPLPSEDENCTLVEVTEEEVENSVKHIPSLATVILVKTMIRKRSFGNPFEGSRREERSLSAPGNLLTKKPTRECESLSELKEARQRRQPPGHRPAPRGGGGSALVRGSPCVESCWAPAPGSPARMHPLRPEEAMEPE
SMILES,remaining activity
Cc1cn(-c2cc(NC(=O)c3ccc(C)c(Nc4nccc(-c5cccnc5)n4)c3)cc(C(F)(F)F)c2)cn1,97.5%
Cc1nc2cc3nc(-c4cccs4)cnc3cc2n1C,112%
O=C(Nc1cccc(Nc2nccc(Nc3cccc(C(F)(F)F)c3)n2)c1)C1CC1,99.5%
CCN(CC)C(=O)c1ccc(Nc2nc(OCC3CCCCC3)c3[nH]cnc3n2)cc1,97.5%
C[C@@H]1CCN(C(=O)CC#N)C[C@@H]1N(C)c1ncnc2[nH]ccc12,97.7%
CN([C@@H](Cc1ccc(OS(=O)(=O)c2cccc3cnccc23)cc1)C(=O)N1CCN(c2ccccc2)CC1)S(=O)(=O)c1cccc2cnccc12,84.2%
CN(C)C[C@H]1CCn2c(c(C3=C(c4cn(C)c5ccccc45)C(=O)NC3=O)c3ccccc32)C1,108%
O=c1cc(-c2cccc3c2Sc2ccccc2S3)oc(N2CCOCC2)c1,133%
CCOc1nc(NC(=O)Cc2cc(OC)ccc2OC)cc(N)c1C#N,85%
N#Cc1c(NC(=O)c2cccc3ccccc23)sc2c1CCCC2,80.4%
Cn1nc2c3c(cccc31)C(=O)c1ccccc1-2,74.9%
Ic1cccc(CSc2nnc(-c3ccncc3)o2)c1,85.1%
c1ccc(-c2cnc(Nc3ccc(OCCN4CCCC4)cc3)s2)cc1,89.4%
CCN(CC)CCNC(=O)c1c(C)[nH]c(/C=C2\C(=O)Nc3ccc(F)cc32)c1C,65.3%
O=C1c2ccccc2-c2n[nH]c3cccc1c23,65.5%
COc1cc2c(cc1OC)-c1[nH]nc(Nc3cccc(F)c3)c1C2,86.8%
O=C1C(Cl)=C(N2C(=O)CCC2=O)C(=O)c2ccccc21,86.1%
Cc1cc2ncc(-c3ccccc3)nc2cc1C,91.8%
c1ccc(-c2[nH]ncc2-c2ccnc3ccccc23)nc1,97%
O=C(NC(NC(=S)Nc1ccc(F)c([N+](=O)[O-])c1)C(Cl)(Cl)Cl)C(c1ccccc1)c1ccccc1 (stereo not shown),126%
COc1cc2ncnc(Nc3cccc(Cl)c3)c2cc1OC,97.5%
CCN(CC)CCNC(=O)c1c(C)[nH]c(/C=C2\C(=O)Nc3ccc(Cl)cc32)c1C,48%
Nc1cccc(-c2cc3c(Oc4cccc(O)c4)ncnc3[nH]2)c1,95.9%
COc1cc2ncnc(Nc3ccc(O)c(Br)c3)c2cc1OC,92.4%
N#C/C(=C\c1ccc(O)c(O)c1)C(=O)NCc1ccccc1,97.4%

# Series 2 — concentration: 1 µM
# Compound: COc1ccc2[nH]c3c4[nH]c5ccc(OC)cc5c4c4c(c3c2c1)C(=O)NC4=O
target,assay,remaining binding
"EGFR (Homo sapiens, UniProt P00533, G719C)",binding,64%
"EPHA8 (Homo sapiens, UniProt P29322)","binding, competition with immobilised ligand",87%
"SNRK (Homo sapiens, UniProt Q9NRH2)",binding,56%
"Tyrosine-protein kinase JAK3, JH1 (JAK3, Homo sapiens, UniProt P52333)","cell-free assay, competition with immobilised ligand",47%
"PRKX (Homo sapiens, UniProt P51817)",binding,23%
"MET (Homo sapiens, UniProt P08581)",binding,78%

# Series 3 — cell line: mouse MPNST tumor cells; technique: high-content nuclear imaging; measured: cell number; concentration: 10 µM; time: 12 h; setting: mean of 2 replicates; baseline: plate mean; reading: higher = more cells
Compound,nuclei count [z-score]
C#CCN(C)CC1=Cc2ccccc2Oc2ccccc21,-0.552
COc1c(C)c2c(c(O)c1C/C=C(\C)CCC(=O)OCCN1CCOCC1)C(=O)OC2,-2.66
COc1ccc(CN2CCN(C(c3ccc(F)cc3)c3ccc(F)cc3)CC2)c(OC)c1OC,-0.54
NS(=O)(=O)c1cc2c(cc1Cl)NC(C(Cl)Cl)NS2(=O)=O (stereo not shown),-1.66
C#CC(=O)N(c1ccc(OC)cc1OC)C(C(=O)NCC(=O)OCC)c1cccs1 (stereo not shown),-5.41
Cc1cc(C)c(S(=O)(=O)Nc2ccccc2C(F)(F)F)c(C)c1,-0.324
N#Cc1cccc(C(=O)Nc2cc(-c3ccccc3)nn2-c2ccccc2)c1,0.648
CCN(CC)CCNC(=O)c1c(C)[nH]c(/C=C2\C(=O)Nc3ccc(F)cc32)c1C,1.43

# Series 4 — technique: von Frey test
# Structure (SMILES): COc1cc(C(=O)OCCCN2CCCN(CCCOC(=O)c3cc(OC)c(OC)c(OC)c3)CC2)cc(OC)c1OC
assay,system,setting,paw withdrawal threshold
,"mouse, CFA inflammatory pain","subcutaneous, 10 mg/kg, 1 h post-dose, second injection, day 3",0.32 g and 0.23 g and 0.29 g and 0.2 g
,"mouse, CFA inflammatory pain","intravenous, dose not given, 5 h post-dose, first injection, day 1",0.23 g and 0.44 g and 0.32 g
,"mouse, CFA inflammatory pain","intraplantar, 10 µg, 3 h post-dose, day 3 after CFA",0.19 g and 0.51 g and 0.65 g and 0.44 g
,"mouse, CFA inflammatory pain","intravenous, dose not given, 1 h post-dose, third injection, day 5",0.32 g and 0.4 g and 0.29 g and 0.23 g
,"mouse, CFA inflammatory pain","subcutaneous, 10 mg/kg, 1 h post-dose, third injection, day 5",0.32 g and 0.23 g
,"mouse, CFA inflammatory pain","intravenous, dose not given, 24 h post-dose, third injection, day 5",0.19 g and 0.32 g and 0.23 g and 0.4 g
mechanical pain,"mouse, STZ diabetic neuropathy","intravenous, 30 mg/kg, 5 h post-dose, first injection, day 8",0.1 g and 0.03 g and 0.02 g and 0.4 g and 0.23 g
,"mouse, CFA inflammatory pain","intravenous, dose not given, 1 h post-dose, first injection, day 1",0.23 g and 0.44 g and 0.32 g

# Series 5 — observed: cell-free assay; technique: competition with immobilised ligand; concentration: 1 µM
# Structure (SMILES): O=C(O)[C@@H]1[C@@H](Cn2nnc3ccccc3c2=O)CC[C@H]1C(=O)c1ccc(OCCC2CCOCC2)cc1
target,remaining binding [%]
"ITK (Homo sapiens, UniProt Q08881)",87
"PTK2 (Homo sapiens, UniProt Q05397)",100
"LATS2 (Homo sapiens, UniProt Q9NRM7)",100
"MINK1 (Homo sapiens, UniProt Q8N4C8)",100
"PIP4K2C (Homo sapiens, UniProt Q8TBX8)",89
"GRK4 (Homo sapiens, UniProt P32298)",100
"Ribosomal protein S6 kinase alpha-6, C-terminal kinase domain (RPS6KA6, Homo sapiens, UniProt Q9UK32)",100
"ALK (Homo sapiens, UniProt Q9UM73, L1196M)",93

# A few entries again (series 1):
SMILES,remaining activity
Ic1cccc(CSc2nnc(-c3ccncc3)o2)c1,85.1%
c1ccc(-c2cnc(Nc3ccc(OCCN4CCCC4)cc3)s2)cc1,89.4%
CCN(CC)CCNC(=O)c1c(C)[nH]c(/C=C2\C(=O)Nc3ccc(F)cc32)c1C,65.3%
